Results of several laboratories.
“And” joins repeats or separate records; there may be more than shown. ± marks the error that the study gave.

SMILES	test	system	setting	how to read	endpoint	value
Cc1cc(Cl)cc([S+](C)[O-])c1NC(=O)c1cc(Br)nn1-c1ncccc1Cl (stereo not shown)	potentiometric				logP	3.6
[Mn+2].[O-][Cl+3]([O-])([O-])[O-].[O-][Cl+3]([O-])([O-])[O-].c1ccc(CN2Cc3cccc(n3)CN(Cc3ccccn3)Cc3cccc(n3)C2)nc1	differential pulse voltammetry			reference: Ag/AgCl	Mn(II)/Mn(III) half-wave potential	0.898 V
CC(C(=O)O)n1nc(Cn2cc3cc(OCC[18F])c(Cl)cc3n2)c2ccccc2c1=O (racemic)		rat, kidney	1 h		tracer uptake	0.38 %ID/g
CC(=O)N([O-])CCCCCNC(=O)CCC(=O)N([O-])CCCCCNC(=O)CCC(=O)N([O-])CCCCCN.[89Zr+4]	radio-TLC	aqueous buffer	1 d, pH 7, 37 °C, 89Zr-labelled complex, added: DTPA 100-fold excess		intact complex	99.6 ± 0.4%
Cc1nn(-c2nc3c(F)cc(F)cc3s2)c(O)c1C(c1ccc(C(F)(F)F)cc1)c1c(C)nn(-c2nc3c(F)cc(F)cc3s2)c1O		ICR mouse, plasma	intravenous, 5 mg/kg		elimination rate constant	0.159 h⁻¹ and 0.0783 h⁻¹ and 0.0515 h⁻¹
COc1cccc(OC)c1-c1cc(C(=O)NC2(C(=O)O)C3CC4CC(C3)CC2C4)nn1-c1ccc(C(=O)N(C)CCOCCOCCN(C)C(=O)[C@H](CCCCNC(=O)[C@H](CC(C)C)NC(=O)C2OC2C(=O)O)NC(=O)CN2CCN(CC(=O)[O-])CCN(CC(=O)[O-])CCN(CC(=O)[O-])CC2)cc1C(C)C.[177Lu+3] (mixture of isomers)		HT-29 xenograft mouse, kidney	168 h	reference: initial uptake	renal retention	17 ± 7%
CCC1CNC(CC)CN(C(C(=O)[O-])c2ccc(C(=O)[O-])cc2)C(CC)CN(CC(=O)[O-])C(CC)CN1.[Mn+2] (stereo not shown)	ICP-MS	BALB/c mouse, heart	intravenous, 0.05 mmol/kg, 30 min, without anaesthesia		Mn content	0.84 ± 0.14 µg/g
O=C(Nc1cnccc1-c1ccc([18F])nc1)c1ccnc(NC(=O)C2CC2)c1		FVB/NJ mice (both sexes), hippocampus	intravenous, dose not given, 120 min		SUV	0.022
CCC(C(=O)Nc1ccc(C(N)=O)c(F)c1)n1cc(OC)c(-c2cc(Cl)ccc2-n2cc(C(F)(F)F)nn2)cc1=O (stereo not shown)		healthy male humans	25 mg, ASD vs IR, fasted		procedure-related adverse events	6.7%
COc1ccc([C@@H]2CC(=O)c3c(O)cc(O[C@@H]4O[C@H](CO)[C@@H](O)[C@H](O)[C@H]4O[C@@H]4O[C@@H](C)[C@H](O)[C@@H](O)[C@H]4O)cc3O2)cc1O		Sprague-Dawley rat, male, obese, plasma	oral, 100 mg/kg		AUC(0-t)	40 ± 4.53 ng·h/mL
COC1C=COC2(C)Oc3c(C)c(O)c4c(c3C2=O)C2=NC3(CCN(CC(C)C)CC3)NC2=C(NC(=O)C(C)=CC=CC(C)C(O)C(C)C(O)C(C)C(OC(=O)c2cccnc2)C1C)C4=O (stereo not shown)		CD-1 mouse female, plasma	intravenous, 5 mg/kg		elimination rate constant	0.103 h⁻¹
CC(C)(O)c1ncc([S@](N)(=O)=NC(=O)Nc2c3c(cc4c2CCC4)CCC3)s1	measured: Gastrointestinal disorders	healthy human volunteers	oral, 200 mg once daily, 14 days, spray-dried dispersion		subjects with adverse events	29%
C=C(NC(=O)c1csc(-c2nc3c(cc2O)-c2nc(cs2)C(=O)NC(C(C)O)C(=O)NC(=C(C)OC)c2nc(cs2)C(=O)NC2c4nc(cs4)C(=O)NC(COC(=O)c4c5c6c(cccc6n4O)COC(=O)C(OC4CC(C)(O)C(N(C)C)C(C)O4)C2OC5)c2nc-3cs2)n1)C(N)=O (stereo not shown)		Sprague-Dawley rats, female, plasma	intravenous infusion, 6 mg/kg, day 7, multiple dosing		AUC(0-inf)	1660 ng·h/mL
CCn1c(=O)c(-c2cc(NC(=O)Nc3ccccc3)c(F)cc2Br)cc2cnc(N)cc21		human plasma	4000 ng/mL, 1 weeks, 4 °C, high QC		mid-term stability accuracy	-11.6%
Cc1n[nH]c(C)c1CCCOc1cc(C(=O)NCCCCC(NC(=O)CN2CCN(CC(=O)[O-])CCN(CC(=O)[O-])CCN(CC(=O)[O-])CC2)C(=O)NCC2CCC(C(=O)NC(Cc3ccc4ccccc4c3)C(=O)NCCCCC(NC(=O)NC(CCC(=O)O)C(=O)O)C(=O)O)CC2)ccc1F.[177Lu+3] (stereo not shown)		BALB/c mouse, blood	intravenous		elimination half-life	1.24 h
OB(O)c1sccc1/C=N/OCc1ccccc1	chemical stability	PBS	80 µM, pH 9		half-life	1.73 h
Cc1ccc(CN2C(=O)/C(=N\c3ccc(Cl)cc3Br)c3ccccc32)cc1		mouse, blood	150 mg/kg		MCHC	323 ± 3.67 g/L
CC[C@H](C)[C@@H]1NC(=O)[C@H](Cc2ccc(O)cc2)NC(=O)CCCSC[C@@H](C(=O)N(CC(=O)N[C@@H](CC(C)C)C(=O)NCC(N)=O)Cc2ccc(F)cc2)NC(=O)[C@H](CC(N)=O)NC(=O)[C@H](CCC(N)=O)NC1=O		human	intranasal, 50 µg repeated doses		severe adverse events	0%
C/C(N)=N/C(=N\S(=O)(=O)c1ccc(C(F)(F)F)cc1)N1C[C@H](c2ccccc2)C(c2ccc(Cl)cc2)=N1		female cynomolgus monkey, plasma	intravenous, 2 mg/kg		Vd	2.3 L/kg
COc1cccc(OC)c1-c1cc(C(=O)NC2(C(=O)O)C3CC4CC(C3)CC2C4)nn1-c1ccc(C(=O)N(C)CCCN(C)C(=O)[C@H](CCCCNC(=O)[C@H](CC(C)C)NC(=O)C2OC2C(=O)O)NC(=O)CN2CCN(CC(=O)[O-])CCN(CC(=O)[O-])CCN(CC(=O)[O-])CC2)cc1C(C)C.[177Lu+3] (mixture of isomers)		mouse, HT-29 xenograft, kidney	4 h post injection		tissue uptake	9.9 %ID/g

SMILES	test	system	setting	how to read	endpoint	value
O=C([O-])CN1CCN(CC(=O)[O-])CCN(CC(=O)NC[C@H]2CC[C@H](C(=O)N[C@@H](Cc3ccc4ccccc4c3)C(=O)NCCCC[C@H](NC(=O)N[C@@H](CCC(=O)O)C(=O)O)C(=O)O)CC2)CCN(CC(=O)[O-])CC1.[68Ga+3]		ICR mouse, blood	intravenous, dose not given		elimination half-life	0.697 h
CN(Cc1ccccc1)C(=O)CN1CCN(CC(=O)N(C)Cc2ccccc2)CCN(Cc2cccc(C(=O)[O-])n2)CC1.[44Sc+3]		mouse, stomach	intravenous, 1 h		tracer uptake	1.09 %ID/g
N#C[C@@H]1CC(F)(F)CN1C(=O)CNC(=O)c1ccnc2c(NC(=O)[C@H](CCCCNC(=O)CCOCCOCCOCCOCCOCCOCCNC(=O)CN3CCN(CC(=O)[O-])CCN(CC(=O)[O-])CCN(CC(=O)[O-])CC3)NC(=O)CCCc3ccc(I)cc3)cccc12.[177Lu+3]		mouse, U-87 MG tumour xenograft, salivary gland	4 h		tissue uptake	4.47 ± 2.55 %ID/g
CN([O-])C(=O)CN1CCN(CC(=O)N(C)[O-])CCN(CC(=O)N(C)[O-])CC1.[89Zr+4]	radio-TLC	human serum	3 days, run 1		intact complex	98.5%
COC(=O)[C@@]1(C(C)C)C=C(C(=O)Nc2cccc(C(=O)Nc3ccc(Nc4nccc(-c5cccnc5)n4)c(C)c3)c2)C(=O)CC1		rat, plasma	10 µM, 120 min		compound remaining	77.9%
C[C@]12C[C@H](c3ccc(S(C)(=O)=O)cc3)[C@@H]3C4=C(CC[C@H]3[C@@H]1CC[C@@]2(O)C(F)(F)C(F)(F)F)C(=O)[C@H](O)CC4		human, plasma	oral, 5 mg multiple doses, day 28		AUC(0-24 h)	77.1 ng·h/mL
O=C(CCCCCCCCCCCCCCCCC(=O)Oc1c2n(cc(C(=O)NCc3c(F)cc(F)cc3F)c1=O)CC1OC3CCC(C3)N1C2=O)Oc1c2n(cc(C(=O)NCc3c(F)cc(F)cc3F)c1=O)CC1OC3CCC(C3)N1C2=O (stereo not shown)		rat plasma	1 µM, 24 h, 1% methanol		prodrug hydrolysed	45%
O=C(Nc1cnccc1-c1ccc([18F])cc1)c1ccnc(NC(=O)C2CC2)c1	ex vivo gamma counting	GSK-3β transgenic mice, late-stage, spleen	intravenous, 1.26 MBq/animal, 120 min, mean, no P-gp inhibitor		SUV	0.27
COCC1CN(C2CCN(c3cc(OC)c(Nc4ncc(Br)c(Nc5ccc6c(c5P(C)(C)=O)OCCO6)n4)cc3C)CC2)C1	first-in-human trial	human	oral, 90 mg once daily	treatment-related leading to dose suspension	adverse events	0%
C=CC(=O)Nc1cc(Nc2nccc(-c3cn(C)c4ccccc34)n2)c(OC)cc1N(C)CCNC		human, plasma	270 ng/mL, 2 h, room temperature, high QC level		remaining compound	100%
COc1ccc(F)cc1C(=O)NCc1ccc(-c2nn([C@@H](C)C(F)(F)F)c(N)c2C(N)=O)cc1		human	intravenous, 22 µg, renal clearance over total clearance		fraction excreted in urine	0.071
CN(Cc1ccccc1)C(=O)CN1CCN(CC(=O)[O-])CCN(CC(=O)[O-])CC1.[44Sc+3]		mouse, heart	intravenous, 1 h		tracer uptake	1.12 %ID/g
CCCCN1C(=O)c2cccc3c(NCCCN4CCOCC4)ccc(c23)C1=O		acetonitrile			fluorescence lifetime	7.1 ns
CN(Cc1ccccc1)C(=O)CN1CCN(CC(=O)[O-])CCN(Cc2cccc(C(=O)[O-])n2)CC1.[177Lu+3]		mouse, blood	intravenous, 1 h		tracer uptake	0.68 %ID/g
CN([O-])C(=O)CN1CCN(CC(=O)N(C)[O-])CCN(Cc2ccccn2)CC1.[89Zr+4]	radio-TLC	human serum	3 days, run 2		intact complex	100%
N#C[C@@H]1CCCN1C(=O)CNC(=O)c1ccnc2ccc(OCCCN3CCN(C(=O)CCc4ccc5c(c4)CN4CCN6CC(=O)[O][68Ga-]([O]C(=O)C4)([O]5)[O]c4ccc(CCC(=O)N5CCN(CCCOc7ccc8nccc(C(=O)NCC(=O)N9CCC[C@H]9C#N)c8c7)CC5)cc4C6)CC3)cc12		BALB/c nude mice, U-87 MG tumour	120 min post-injection	reference: tumour over muscle	tumour-to-organ ratio	16.6 ± 4.48
CN(Cc1ccccc1)C(=O)CN1CCN(CC(=O)[O-])CCN(CC(=O)N(C)Cc2ccccc2)CC1.[44Sc+3]		mouse, brain	intravenous, 1 h		tracer uptake	0.09 %ID/g
O=C(O)CCCOc1ccc([18F])cc1-c1cc(-c2ccccc2C(F)(F)F)n(-c2ccccc2)n1	OLINDA/EXM from mouse data	human adults, liver			absorbed dose	11.5 µGy/MBq
O=C([O-])CN1CCN(CC(=O)[O-])CCN(Cc2cccc(C(=O)[O-])n2)CC1.[177Lu+3]		mouse, kidney	intravenous, 1 h		tracer uptake	7.14 %ID/g
CC(C)OCCOCc1ccc(OCC(O)CN(N=O)C(C)C)cc1 (stereo not shown)	duplex sequencing	NMRI mouse, bone marrow	concentration not given		T>G mutation frequency	increased
